Measured values from different studies.
“And” joins repeats or separate records; there may be more than shown. ± gives the spread as reported.
PLAT: Tissue-type plasminogen activator (PLAT, Homo sapiens, UniProt P00750)
UniProt P00750, sequence (whole entry, looked up): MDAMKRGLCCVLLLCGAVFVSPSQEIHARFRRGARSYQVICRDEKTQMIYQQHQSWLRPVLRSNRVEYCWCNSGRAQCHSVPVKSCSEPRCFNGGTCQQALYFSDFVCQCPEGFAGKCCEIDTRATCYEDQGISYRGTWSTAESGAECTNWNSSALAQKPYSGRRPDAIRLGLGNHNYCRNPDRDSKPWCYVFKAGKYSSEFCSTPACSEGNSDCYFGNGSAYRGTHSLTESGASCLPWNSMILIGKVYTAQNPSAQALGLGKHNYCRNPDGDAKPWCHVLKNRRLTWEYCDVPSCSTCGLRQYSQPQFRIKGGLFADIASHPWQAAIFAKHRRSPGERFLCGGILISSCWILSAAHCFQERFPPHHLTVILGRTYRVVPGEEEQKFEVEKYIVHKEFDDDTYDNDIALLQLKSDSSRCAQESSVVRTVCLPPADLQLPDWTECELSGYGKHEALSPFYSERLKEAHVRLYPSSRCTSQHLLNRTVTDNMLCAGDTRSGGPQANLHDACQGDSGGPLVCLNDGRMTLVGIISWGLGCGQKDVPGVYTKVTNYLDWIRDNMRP
Platelet-activating factor acetylhydrolase 2, cytoplasmic: Platelet-activating factor acetylhydrolase 2, cytoplasmic (Mus musculus, UniProt Q8VDG7)
UniProt Q8VDG7, sequence (whole entry, looked up): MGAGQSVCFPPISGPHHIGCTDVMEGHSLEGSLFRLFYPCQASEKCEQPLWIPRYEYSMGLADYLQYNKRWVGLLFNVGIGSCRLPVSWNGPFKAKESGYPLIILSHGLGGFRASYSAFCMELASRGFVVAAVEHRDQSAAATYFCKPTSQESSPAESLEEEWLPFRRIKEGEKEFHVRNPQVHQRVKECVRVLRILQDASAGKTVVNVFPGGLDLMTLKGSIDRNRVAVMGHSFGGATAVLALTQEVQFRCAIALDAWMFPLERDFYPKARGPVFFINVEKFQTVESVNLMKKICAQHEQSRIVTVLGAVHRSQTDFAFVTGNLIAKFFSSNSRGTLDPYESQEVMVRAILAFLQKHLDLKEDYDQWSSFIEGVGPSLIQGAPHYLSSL
HDAC3: Histone deacetylase 3 (HDAC3, Homo sapiens, UniProt O15379)
UniProt O15379, sequence (whole entry, looked up): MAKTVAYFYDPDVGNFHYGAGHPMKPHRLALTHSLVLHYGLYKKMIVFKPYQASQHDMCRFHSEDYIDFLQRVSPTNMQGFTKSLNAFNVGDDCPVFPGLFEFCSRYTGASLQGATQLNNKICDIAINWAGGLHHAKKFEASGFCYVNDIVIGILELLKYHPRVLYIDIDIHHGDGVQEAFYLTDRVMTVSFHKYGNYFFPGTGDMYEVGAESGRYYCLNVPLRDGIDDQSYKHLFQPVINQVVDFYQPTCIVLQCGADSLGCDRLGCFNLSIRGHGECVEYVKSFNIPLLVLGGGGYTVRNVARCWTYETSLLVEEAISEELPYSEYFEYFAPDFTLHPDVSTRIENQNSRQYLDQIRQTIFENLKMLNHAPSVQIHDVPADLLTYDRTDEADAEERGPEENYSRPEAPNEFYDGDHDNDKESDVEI
Lypla1: Acyl-protein thioesterase 1 (Lypla1, Mus musculus, UniProt P97823)
UniProt P97823, sequence (whole entry, looked up): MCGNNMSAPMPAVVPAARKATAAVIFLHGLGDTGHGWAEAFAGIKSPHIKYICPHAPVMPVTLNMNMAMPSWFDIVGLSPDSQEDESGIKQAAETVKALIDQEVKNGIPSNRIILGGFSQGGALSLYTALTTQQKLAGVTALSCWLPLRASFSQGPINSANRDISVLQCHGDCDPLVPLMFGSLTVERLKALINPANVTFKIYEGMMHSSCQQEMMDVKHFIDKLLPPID
HDAC8: Histone deacetylase 8 (HDAC8, Homo sapiens, UniProt Q9BY41)
HTR6: 5-hydroxytryptamine receptor 6 (HTR6, Homo sapiens, UniProt P50406)
DRD4: D(4) dopamine receptor (DRD4, Homo sapiens, UniProt P21917)
PARP1: Poly [ADP-ribose] polymerase 1 (PARP1, Homo sapiens, UniProt P09874)
UniProt P09874, sequence (whole entry, looked up): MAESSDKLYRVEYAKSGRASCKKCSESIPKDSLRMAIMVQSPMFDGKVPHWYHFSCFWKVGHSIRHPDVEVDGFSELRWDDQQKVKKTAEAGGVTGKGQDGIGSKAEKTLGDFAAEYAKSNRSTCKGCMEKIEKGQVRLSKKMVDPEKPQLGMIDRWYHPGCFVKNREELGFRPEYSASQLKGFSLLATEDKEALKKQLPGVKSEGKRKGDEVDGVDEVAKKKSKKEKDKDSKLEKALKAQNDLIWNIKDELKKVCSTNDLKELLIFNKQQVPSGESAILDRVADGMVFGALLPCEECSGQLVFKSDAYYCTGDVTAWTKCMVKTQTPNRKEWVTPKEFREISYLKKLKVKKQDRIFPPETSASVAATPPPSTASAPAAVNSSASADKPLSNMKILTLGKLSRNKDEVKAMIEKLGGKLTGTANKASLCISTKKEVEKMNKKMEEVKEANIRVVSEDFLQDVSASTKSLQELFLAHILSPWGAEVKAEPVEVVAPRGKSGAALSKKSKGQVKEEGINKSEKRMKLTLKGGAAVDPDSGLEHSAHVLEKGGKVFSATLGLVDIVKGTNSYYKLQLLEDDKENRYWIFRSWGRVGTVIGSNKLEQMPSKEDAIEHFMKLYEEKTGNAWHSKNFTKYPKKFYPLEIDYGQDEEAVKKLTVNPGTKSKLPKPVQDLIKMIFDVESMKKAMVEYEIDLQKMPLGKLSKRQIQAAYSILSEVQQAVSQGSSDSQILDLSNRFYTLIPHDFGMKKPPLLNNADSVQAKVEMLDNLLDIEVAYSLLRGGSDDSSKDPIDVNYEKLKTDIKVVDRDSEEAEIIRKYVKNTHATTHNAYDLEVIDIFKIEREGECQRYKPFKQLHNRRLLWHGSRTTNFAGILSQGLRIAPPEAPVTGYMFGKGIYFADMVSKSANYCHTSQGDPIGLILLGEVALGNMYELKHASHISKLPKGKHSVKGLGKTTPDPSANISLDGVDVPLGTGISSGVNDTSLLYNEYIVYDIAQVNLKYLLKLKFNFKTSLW
Breakpoint cluster region protein GAP domain: Breakpoint cluster region protein, GAP domain (Homo sapiens, UniProt P11274)
UniProt P07948, sequence (whole entry, looked up): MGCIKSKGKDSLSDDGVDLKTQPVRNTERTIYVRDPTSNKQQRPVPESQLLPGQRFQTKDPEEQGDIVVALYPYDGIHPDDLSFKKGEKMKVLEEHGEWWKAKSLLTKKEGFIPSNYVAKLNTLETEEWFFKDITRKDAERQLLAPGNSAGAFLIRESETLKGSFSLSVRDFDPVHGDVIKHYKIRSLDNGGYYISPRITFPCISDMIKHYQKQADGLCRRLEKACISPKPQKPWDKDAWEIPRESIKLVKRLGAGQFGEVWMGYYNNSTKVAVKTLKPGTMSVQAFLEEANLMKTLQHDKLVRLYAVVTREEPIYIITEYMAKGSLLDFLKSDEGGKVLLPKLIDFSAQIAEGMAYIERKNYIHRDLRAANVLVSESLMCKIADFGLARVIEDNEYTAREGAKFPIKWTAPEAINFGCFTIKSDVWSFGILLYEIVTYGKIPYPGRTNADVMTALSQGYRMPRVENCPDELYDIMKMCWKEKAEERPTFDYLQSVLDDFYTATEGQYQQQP
UniProt P11274, sequence (whole entry, looked up): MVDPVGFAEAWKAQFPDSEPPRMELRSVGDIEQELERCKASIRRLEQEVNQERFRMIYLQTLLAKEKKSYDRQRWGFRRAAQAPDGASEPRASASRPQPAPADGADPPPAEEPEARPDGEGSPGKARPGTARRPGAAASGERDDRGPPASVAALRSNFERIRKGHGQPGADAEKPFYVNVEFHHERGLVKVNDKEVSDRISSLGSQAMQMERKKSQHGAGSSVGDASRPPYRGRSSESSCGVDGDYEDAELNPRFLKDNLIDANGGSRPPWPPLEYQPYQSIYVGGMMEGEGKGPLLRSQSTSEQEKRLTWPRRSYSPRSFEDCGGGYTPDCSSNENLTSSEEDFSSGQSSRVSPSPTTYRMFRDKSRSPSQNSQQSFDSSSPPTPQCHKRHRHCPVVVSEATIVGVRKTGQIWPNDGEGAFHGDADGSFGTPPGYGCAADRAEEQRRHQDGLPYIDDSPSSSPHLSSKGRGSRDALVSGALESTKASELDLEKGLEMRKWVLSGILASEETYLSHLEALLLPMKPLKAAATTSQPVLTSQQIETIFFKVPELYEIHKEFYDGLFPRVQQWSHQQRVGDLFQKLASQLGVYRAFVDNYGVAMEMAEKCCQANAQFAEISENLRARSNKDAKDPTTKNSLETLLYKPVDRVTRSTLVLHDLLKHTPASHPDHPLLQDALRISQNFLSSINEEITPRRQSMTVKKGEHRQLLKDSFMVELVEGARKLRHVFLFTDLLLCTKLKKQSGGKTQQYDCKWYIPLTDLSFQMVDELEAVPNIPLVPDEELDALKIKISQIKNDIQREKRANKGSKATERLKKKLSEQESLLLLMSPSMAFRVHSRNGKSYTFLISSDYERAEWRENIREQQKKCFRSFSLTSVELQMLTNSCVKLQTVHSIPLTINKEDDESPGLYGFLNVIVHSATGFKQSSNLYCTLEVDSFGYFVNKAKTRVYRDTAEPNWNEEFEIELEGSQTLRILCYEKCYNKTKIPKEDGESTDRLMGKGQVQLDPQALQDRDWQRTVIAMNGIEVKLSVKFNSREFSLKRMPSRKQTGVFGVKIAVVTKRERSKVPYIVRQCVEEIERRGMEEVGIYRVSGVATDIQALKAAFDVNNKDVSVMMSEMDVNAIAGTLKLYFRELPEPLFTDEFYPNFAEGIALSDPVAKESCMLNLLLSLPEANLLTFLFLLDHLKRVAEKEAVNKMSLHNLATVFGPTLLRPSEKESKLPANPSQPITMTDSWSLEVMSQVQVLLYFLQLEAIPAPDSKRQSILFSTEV
UniProt P06493, sequence (whole entry, looked up): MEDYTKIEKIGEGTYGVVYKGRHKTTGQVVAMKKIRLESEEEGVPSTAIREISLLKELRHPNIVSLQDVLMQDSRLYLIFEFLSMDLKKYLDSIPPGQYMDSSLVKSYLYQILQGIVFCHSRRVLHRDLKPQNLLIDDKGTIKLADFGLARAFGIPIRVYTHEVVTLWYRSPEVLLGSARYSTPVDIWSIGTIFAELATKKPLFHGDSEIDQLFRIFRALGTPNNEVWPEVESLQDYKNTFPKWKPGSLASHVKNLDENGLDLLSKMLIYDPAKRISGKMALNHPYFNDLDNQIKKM
UniProt Q9HAN9, sequence (whole entry, looked up): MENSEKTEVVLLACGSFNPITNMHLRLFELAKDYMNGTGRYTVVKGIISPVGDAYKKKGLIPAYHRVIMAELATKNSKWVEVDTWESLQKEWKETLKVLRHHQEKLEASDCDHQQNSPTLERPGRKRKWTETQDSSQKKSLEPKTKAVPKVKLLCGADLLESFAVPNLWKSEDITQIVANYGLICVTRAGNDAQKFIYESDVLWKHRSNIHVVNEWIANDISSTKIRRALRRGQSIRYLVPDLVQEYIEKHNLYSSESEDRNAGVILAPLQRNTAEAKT

Structure (SMILES) | target | test | test system | conditions | scale | inhibition
O=C1CO[C@H](CNC(=O)C2(c3ccc(Cl)cc3)CC2)CN1C1Cc2ccccc2C1 | CXCR2 (Homo sapiens, UniProt P25025) | β-arrestin recruitment, antagonist |  | 1 µM |  | 0%
COc1ccc(S(=O)(=O)N2CCc3ccccc3C2)cc1N1CCN(C(=O)c2ccc(F)cc2C(F)(F)F)CC1 | Htr1d (Rattus norvegicus, UniProt P28565) | ligand displacement, radioligand |  | 1 µM |  | 16.2%
Cc1ccc(CNC(=O)C(CCc2ccccc2)NC(=O)C(NC(=O)c2ccc(OCc3ccc(C(C)(C)C)cc3)cc2)C(C)O)cc1 (stereo not drawn) | PLAT | enzyme activity, inhibitor |  | 100 µM |  | 12%
C=CCN(CC=C)C(=O)n1ccnn1 | Platelet-activating factor acetylhydrolase 2, cytoplasmic | serine hydrolase activity, inhibitor, competitive gel-based ABPP | mouse T-cell proteome | 1 µM, 30 min, 37 °C |  | < 50%
CCCC(=O)O[C@@]1(C)CN(Cc2ccccc2)[C@H]2C[C@@H]1CC(=O)[C@@H]2C | Oprd1 (Rattus norvegicus, UniProt P33533) | ligand displacement, radioligand |  | 1 µM |  | 16%
COc1cc(-c2cn(C)c(=O)c3cnccc23)cc(OC)c1CN(C)C | TRIM24 (Homo sapiens, UniProt O15164) |  |  | 1 µM |  | -7.14%
Cc1c(COc2cc(OCc3cccc(C#N)c3)c(CN3CCCC[C@@H]3C(=O)O)cc2Cl)cccc1-c1cccc(OCCCCCCC(=O)NO)c1 | HDAC3 | enzyme activity, inhibitor |  | 1 µM |  | 96.9%
N=C(N)NCCCC(NC(=O)C(CC(=O)NO)Cc1ccc2ccccc2c1)C(=O)NC(Cc1c[nH]c2ccccc12)C(=O)NC(CCC(=O)O)C(N)=O (stereo not drawn) | MMP1 (Homo sapiens, UniProt P03956) |  |  | 1 µM |  | 0%
O=C(n1ccnn1)n1c2ccccc2c2ccccc21 | Lypla1 |  |  | 1 µM |  | < 50%
CC(=O)NCCNCc1cc(Cl)c(OCc2cccc(-c3cccc(OCc4ccc(C(=O)NO)cc4)c3)c2C)cc1OCc1cccc(C#N)c1 | HDAC3 | enzyme activity, inhibitor |  | 1 µM |  | 35.2%
COc1cc(-n2cc3cc(F)cc(C(N)=O)c3n2)cc(Cl)c1C1CC(O)(CCO)Cc2ccccc21 (stereo not drawn) | PARP12 (Homo sapiens, UniProt Q9H0J9) | enzyme activity, inhibitor |  | 10 µM |  | 7.89%
CCCCCCCCCCCCCCCC(=O)N[C@@H](CCCCN)C(=O)N[C@@H](CCCCN)C(=O)N[C@@H](CO)C(=O)N[C@@H](CCCNC(=N)N)C(=O)N[C@@H](C)C(=O)N[C@@H](CC(C)C)C(=O)N[C@@H](Cc1ccccc1)C(N)=O | F2R (Homo sapiens, UniProt P25116) | platelet aggregation, ex vivo LTA | human | 0.3 mg/kg, 1 h, together with: SFLLRN 5 µM | relative to: baseline | 8%
O=C(N1CCOCC1)n1ccnn1 | Lypla1 |  |  | 1 µM |  | < 50%
O=[N+]([O-])c1ccc(Cn2cc(Cn3cc(CO)nn3)nn2)cc1 | 1-phosphatidylinositol 4,5-bisphosphate phosphodiesterase delta-1, PH domain (Plcd1, Rattus norvegicus, UniProt P10688) | PI(4,5)P2 binding to PH domain, SPR |  | 50 µM |  | 82 ± 7%
Cc1c(OS(=O)(=O)Oc2ccccc2-c2ccccc2)cccc1C(=O)NO | HDAC8 | enzyme activity, inhibitor, fluorescence |  | 10 µM |  | 47%
O=C(N1CCCC1)n1ccnn1 | Lypla1 |  |  | 1 µM |  | > 95%
Cc1c(COc2cc(OCc3cccc(C#N)c3)c(CN3CCCC[C@H]3C(=O)O)cc2Cl)cccc1-c1cccc(OCc2ccc(C(=O)NO)cc2)c1 | HDAC3 | enzyme activity, inhibitor |  | 1 µM |  | 44%
O=C1c2sc(-c3ccc(N4CCC(F)C4)nc3F)nc2CCN1c1cccnc1 (stereo not drawn) | AMPA receptor | radioligand binding |  | 1 µM, together with: agonist radioligand |  | -23%
CCC(=O)N(C)c1ccc(Cl)c(Cl)c1 | GALR2 (Homo sapiens, UniProt O43603) | ligand displacement, radioligand |  | 10 µM |  | < 10%
C=CCNC(=O)[C@H](CCc1ccccc1)NC(=O)[C@H](CC(=O)NCC(C)(C)C)NC(=O)CCc1ccccc1 | PLAT | enzyme activity, inhibitor |  | 100 µM |  | 12%
N#Cc1c(Nc2ccccc2C(F)(F)F)s[nH]c1=O | NMNAT1 (Homo sapiens, UniProt Q9HAN9) | enzyme activity, inhibitor |  | 10 µM |  | 54%
C[Si]1(C[C@H](CN)CC(=O)O)CCCC1 | L-type calcium channel, rat | binding, radioligand binding |  | 70 µM, together with: [3H]diltiazem |  | -8%
CCCCCCN(O)C(=O)CCCCC[C@@H]1NC(=O)[C@H]([C@@H](C)CC)NC(=O)[C@H](Cc2ccccc2C(F)(F)F)NC(=O)CCSCc2cccc(n2)CSCCCNC1=O | HDAC8 | enzyme activity, inhibitor, fluorogenic |  | 30 µM |  | 15%
Cc1cc(Cl)cc(-c2ccnc3cc(CN4C(=O)C5C(C4=O)C5(C)C)sc23)c1C[C@@H]1CNCCO1 (stereo partly drawn) | USP7 (Homo sapiens, UniProt Q93009) | enzyme activity, inhibitor |  | 0.5 µM |  | 115% and 122%
Cc1c(COc2cc(OCc3cccc(C#N)c3)c(CNC(C)(CO)CO)cc2Cl)cccc1-c1cccc(OCc2ccc(C(=O)NO)cc2)c1 | HDAC3 | enzyme activity, inhibitor |  | 1 µM |  | 33.4%
CN(C(=O)n1ccnn1)c1ccccc1 | Platelet-activating factor acetylhydrolase 2, cytoplasmic | serine hydrolase activity, inhibitor, competitive gel-based ABPP | mouse T-cell proteome | 1 µM, 30 min, 37 °C |  | < 50%

Structure (SMILES) | target | test | test system | conditions | scale | inhibition
CC1Cc2ccccc2N1C(=O)CN1CCN(c2ccccc2)CC1 (stereo not drawn) | HTR6 | radioligand binding |  | concentration not given, together with: [3H]LSD |  | 6.1%
COc1ccc(CN2CC(COc3nc(C)cs3)CC(F)(F)C2)cc1F (stereo not drawn) | DRD4 | ligand displacement, radioligand |  | 10 µM |  | -4.6%
CCCCCCC#Cc1cncc(-c2nnc(SCc3ccc([N+](=O)[O-])cc3)n2C)c1 | mraY (Staphylococcus aureus, UniProt Q2FZ93) | cell-free assay, inhibitor |  | 250 µM |  | 62%
CN1CC[C@@H](COc2cnc(C#N)cc2-c2ccn3nc(NC(=O)C4CC4)cc3c2)C1 | MOK (Homo sapiens, UniProt Q9UQ07) | enzyme activity, inhibitor |  | 1 µM |  | -1%
NC(=O)C[C@H]1CCc2sc3ncnc(O[C@H]4CC[C@H](N5CCOCC5)CC4)c3c21 | Cyclin-dependent kinase 1, with cyclin B (CDK1, Homo sapiens, UniProt P06493) | enzyme activity, inhibitor |  | 10 µM |  | 17%
O=C(CCCc1ccc2c(c1)OCCO2)NCCNC(=O)Cn1c(=O)[nH]c(=O)c2ccccc21 | PARP1 | enzyme activity, inhibitor |  | 50 nM |  | 0%
Cc1cccc(O[C@H]2CCC[C@@H](C(C)CNCc3ccncc3)C2)c1 (relative stereo) | Tyrosine-protein kinase Lyn, isoform A (LYN, Homo sapiens, UniProt P07948) | kinome profiling |  | 1 µM |  | 2%
CCOC(=O)C1(C)C(Br)=C(Cl)C(=O)N1c1ccc(Cl)cc1 (stereo not drawn) | Breakpoint cluster region protein GAP domain | GAP activity |  | 10 µM, selectivity counter screen |  | -13.6%
CCN(CC)C(=O)n1ccnn1 | Lypla1 |  |  | 1 µM |  | < 50%
Fc1cccc(OCC2CN(Cc3ncn4ccccc34)CCC2(F)F)c1 (stereo not drawn) | DRD4 | ligand displacement, radioligand |  | 10 µM |  | 48%
Cc1cc(C(=O)NCCNC(=O)c2cccc(COc3ccccc3C(N)=O)c2)n[nH]1 | PARP2 (Homo sapiens, UniProt Q9UGN5) | enzyme activity, inhibitor |  | 0.5 µM |  | 100%
O=C(N(c1ccccc1)c1ccccc1)n1ccnn1 | Neutral cholesterol ester hydrolase 1 (Mus musculus, UniProt Q8BLF1) | probe labeling, inhibitor, gel-based competitive ABPP | mouse T-cell proteome | 1 µM, 30 min, 37 °C |  | > 95%
O=C(CC1CC2CCC1C2)NCCNC(=O)Cn1c(=O)[nH]c(=O)c2ccccc21 (stereo not drawn) | PARP1 | enzyme activity, inhibitor |  | 0.5 µM |  | 22%
CN(C)C(=O)n1ccnn1 | Platelet-activating factor acetylhydrolase 2, cytoplasmic | serine hydrolase activity, inhibitor, competitive gel-based ABPP | mouse T-cell proteome | 1 µM, 30 min, 37 °C |  | < 50%
Cc1c(COc2cc(OCc3cccc(C#N)c3)c(CN3CCCC[C@H]3C(=O)O)cc2Cl)cccc1-c1cccc(OCc2ccc(/C=C/C(=O)NO)cc2)c1 | HDAC3 | enzyme activity, inhibitor |  | 1 µM |  | 3.14%
C=CC(=O)Nc1cccc(-c2cnc3[nH]cc(C(=O)NC(C)(C)C)c3n2)c1 | Tyrosine-protein kinase Lyn, isoform B (LYN, Homo sapiens, UniProt P07948) | kinase activity, inhibitor, kinase panel |  | 0.1 µM |  | 8% and 11%
C[C@H](NC(=O)[C@H](CC(=O)NCC(C)(C)C)NC(=O)C(=O)c1c[nH]c2ccccc12)C(=O)NCc1ccc(F)cc1F | PLAT | enzyme activity, inhibitor |  | 100 µM |  | 26%
Cc1ccc(C(C2=C(O)CC(C)(C)CC2=O)C2=C(O)CC(C)(C)CC2=O)o1 | Breakpoint cluster region protein GAP domain | GAP activity |  | 10 µM, selectivity counter screen |  | -8.01%
CCn1cc(C(=O)O)c(=O)c2c(N)c(F)c(NC3CCCCC3)cc21 | Cyclin-dependent kinase 1, with cyclin B1 (CDK1, Homo sapiens, UniProt P06493) | kinase activity |  | 0.1 µM, together with: ATP at Km |  | 34.8%
Brc1ccccc1-c1nnc(CSc2nnnn2-c2ccccc2)o1 | HTR6 | ligand displacement, radioligand |  | 10 µM |  | 35%
CC1CCN(C(=O)c2cccc(NC(=O)Nc3cc(Cl)cc(Cl)c3)c2)CC1 | Beta-lactam-inducible penicillin-binding protein (pbp, Staphylococcus aureus, UniProt P07944) | Bocillin-FL labelling, fluorescence polarization |  | 50 µM |  | no inhibition
C[Si](C)(C)C[C@H](CN)CC(=O)O | SLC6A4 (Homo sapiens, UniProt P31645) | ligand displacement, radioligand |  | 250 µM |  | 8%
C=CC(=O)N1Cc2nc(-c3cc(-c4cc(Cl)cnc4Cl)c(F)cc3F)n(-c3ccncn3)c2C1 | SPHK1 (Homo sapiens, UniProt Q9NYA1) | cell-free assay, inhibitor |  | 1 µM |  | -5.8%
COc1ccc2c(c1)-c1nc(N)sc1CC2 | Breakpoint cluster region protein GAP domain | GAP activity |  | 10 µM, selectivity counter screen |  | 44.2%
O=C1c2sc(-c3ccc(N4CCC(CO)CC4)nc3F)nc2CCN1c1cccnc1 | ADRB1 (Homo sapiens, UniProt P08588) | ligand displacement, radioligand |  | 1 µM |  | -5%

Repeated from above:
Structure (SMILES) | target | test | test system | conditions | scale | inhibition
Cc1c(OS(=O)(=O)Oc2ccccc2-c2ccccc2)cccc1C(=O)NO | HDAC8 | enzyme activity, inhibitor, fluorescence |  | 10 µM |  | 47%
CCCCCCC#Cc1cncc(-c2nnc(SCc3ccc([N+](=O)[O-])cc3)n2C)c1 | mraY (Staphylococcus aureus, UniProt Q2FZ93) | cell-free assay, inhibitor |  | 250 µM |  | 62%
CCn1cc(C(=O)O)c(=O)c2c(N)c(F)c(NC3CCCCC3)cc21 | Cyclin-dependent kinase 1, with cyclin B1 (CDK1, Homo sapiens, UniProt P06493) | kinase activity |  | 0.1 µM, together with: ATP at Km |  | 34.8%
Fc1cccc(OCC2CN(Cc3ncn4ccccc34)CCC2(F)F)c1 (stereo not drawn) | DRD4 | ligand displacement, radioligand |  | 10 µM |  | 48%
NC(=O)C[C@H]1CCc2sc3ncnc(O[C@H]4CC[C@H](N5CCOCC5)CC4)c3c21 | Cyclin-dependent kinase 1, with cyclin B (CDK1, Homo sapiens, UniProt P06493) | enzyme activity, inhibitor |  | 10 µM |  | 17%
O=C1c2sc(-c3ccc(N4CCC(CO)CC4)nc3F)nc2CCN1c1cccnc1 | ADRB1 (Homo sapiens, UniProt P08588) | ligand displacement, radioligand |  | 1 µM |  | -5%
